# Results collected from several papers.
# ± gives the spread as reported.
# Chymotrypsin-C: Chymotrypsin-C (Homo sapiens, UniProt Q99895)
# Chain of UniProt Q99895 (whole entry, looked up): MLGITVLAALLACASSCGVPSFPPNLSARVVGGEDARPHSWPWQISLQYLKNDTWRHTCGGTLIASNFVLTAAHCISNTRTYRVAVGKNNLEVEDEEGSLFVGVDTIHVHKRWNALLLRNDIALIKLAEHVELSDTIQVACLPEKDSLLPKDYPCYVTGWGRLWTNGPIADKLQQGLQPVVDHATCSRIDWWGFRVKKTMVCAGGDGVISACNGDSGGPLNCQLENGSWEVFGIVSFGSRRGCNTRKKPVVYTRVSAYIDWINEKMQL
# CA2: Carbonic anhydrase 2 (CA2, Homo sapiens, UniProt P00918)
# ACE: Angiotensin-converting enzyme (ACE, Homo sapiens, UniProt P12821)
# Chain of UniProt P12821 (whole entry, looked up): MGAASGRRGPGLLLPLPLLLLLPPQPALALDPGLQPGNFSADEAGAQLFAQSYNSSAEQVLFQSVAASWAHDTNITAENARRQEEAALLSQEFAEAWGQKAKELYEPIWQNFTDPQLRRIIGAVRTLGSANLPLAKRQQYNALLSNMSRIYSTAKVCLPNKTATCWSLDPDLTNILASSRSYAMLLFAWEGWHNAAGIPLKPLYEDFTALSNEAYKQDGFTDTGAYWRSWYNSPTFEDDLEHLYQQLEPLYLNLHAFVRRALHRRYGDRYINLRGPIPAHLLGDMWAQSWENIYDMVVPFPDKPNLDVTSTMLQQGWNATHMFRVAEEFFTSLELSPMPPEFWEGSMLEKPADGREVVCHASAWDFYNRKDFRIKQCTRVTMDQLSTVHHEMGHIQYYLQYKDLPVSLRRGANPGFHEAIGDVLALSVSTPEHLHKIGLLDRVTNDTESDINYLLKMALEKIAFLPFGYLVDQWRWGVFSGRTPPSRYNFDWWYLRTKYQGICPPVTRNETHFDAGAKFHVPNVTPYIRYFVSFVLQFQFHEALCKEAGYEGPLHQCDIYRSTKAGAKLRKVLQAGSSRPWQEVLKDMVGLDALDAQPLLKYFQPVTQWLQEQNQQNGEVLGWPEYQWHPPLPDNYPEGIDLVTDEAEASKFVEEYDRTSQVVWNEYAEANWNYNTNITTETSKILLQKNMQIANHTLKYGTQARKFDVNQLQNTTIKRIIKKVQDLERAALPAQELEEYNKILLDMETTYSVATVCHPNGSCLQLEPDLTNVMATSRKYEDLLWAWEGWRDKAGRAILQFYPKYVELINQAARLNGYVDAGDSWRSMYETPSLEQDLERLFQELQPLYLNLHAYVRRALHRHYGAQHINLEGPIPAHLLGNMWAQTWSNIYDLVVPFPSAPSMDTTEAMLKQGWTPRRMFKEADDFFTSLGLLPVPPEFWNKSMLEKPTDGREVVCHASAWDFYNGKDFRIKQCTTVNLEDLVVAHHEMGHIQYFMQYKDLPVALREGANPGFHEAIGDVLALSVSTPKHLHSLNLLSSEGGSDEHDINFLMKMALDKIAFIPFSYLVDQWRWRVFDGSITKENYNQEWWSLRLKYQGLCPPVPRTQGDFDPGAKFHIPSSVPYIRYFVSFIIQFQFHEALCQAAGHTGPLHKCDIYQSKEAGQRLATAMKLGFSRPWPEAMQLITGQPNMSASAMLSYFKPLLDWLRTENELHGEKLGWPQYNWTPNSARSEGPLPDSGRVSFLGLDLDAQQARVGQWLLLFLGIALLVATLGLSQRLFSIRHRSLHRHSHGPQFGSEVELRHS
# DRD4: D(4) dopamine receptor (DRD4, Homo sapiens, UniProt P21917)
# Chain of UniProt P21917 (whole entry, looked up): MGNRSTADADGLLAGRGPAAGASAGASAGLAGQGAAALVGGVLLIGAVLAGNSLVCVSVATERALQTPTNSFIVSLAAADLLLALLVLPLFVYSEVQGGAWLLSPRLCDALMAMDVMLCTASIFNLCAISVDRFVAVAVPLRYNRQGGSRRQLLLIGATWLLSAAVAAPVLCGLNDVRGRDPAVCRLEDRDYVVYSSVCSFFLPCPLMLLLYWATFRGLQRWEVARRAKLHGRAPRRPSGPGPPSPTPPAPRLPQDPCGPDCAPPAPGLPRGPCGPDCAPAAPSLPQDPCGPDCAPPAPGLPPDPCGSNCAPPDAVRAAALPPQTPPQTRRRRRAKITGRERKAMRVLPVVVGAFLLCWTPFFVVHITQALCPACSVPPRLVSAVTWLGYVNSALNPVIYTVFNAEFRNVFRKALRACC
# Chain of UniProt P28335 (whole entry, looked up): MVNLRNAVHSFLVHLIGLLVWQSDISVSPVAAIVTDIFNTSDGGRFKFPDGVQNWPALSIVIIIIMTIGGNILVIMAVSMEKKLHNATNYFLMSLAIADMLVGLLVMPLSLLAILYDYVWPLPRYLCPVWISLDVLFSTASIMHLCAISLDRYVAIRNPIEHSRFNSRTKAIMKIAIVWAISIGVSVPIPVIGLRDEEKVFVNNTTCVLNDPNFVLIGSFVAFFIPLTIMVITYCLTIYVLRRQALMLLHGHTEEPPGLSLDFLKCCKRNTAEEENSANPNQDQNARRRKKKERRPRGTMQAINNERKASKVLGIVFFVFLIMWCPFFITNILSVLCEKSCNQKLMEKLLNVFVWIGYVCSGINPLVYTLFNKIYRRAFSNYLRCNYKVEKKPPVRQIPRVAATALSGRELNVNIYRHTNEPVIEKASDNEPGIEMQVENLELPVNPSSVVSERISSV
# Chain of UniProt P41143 (whole entry, unmodified, looked up): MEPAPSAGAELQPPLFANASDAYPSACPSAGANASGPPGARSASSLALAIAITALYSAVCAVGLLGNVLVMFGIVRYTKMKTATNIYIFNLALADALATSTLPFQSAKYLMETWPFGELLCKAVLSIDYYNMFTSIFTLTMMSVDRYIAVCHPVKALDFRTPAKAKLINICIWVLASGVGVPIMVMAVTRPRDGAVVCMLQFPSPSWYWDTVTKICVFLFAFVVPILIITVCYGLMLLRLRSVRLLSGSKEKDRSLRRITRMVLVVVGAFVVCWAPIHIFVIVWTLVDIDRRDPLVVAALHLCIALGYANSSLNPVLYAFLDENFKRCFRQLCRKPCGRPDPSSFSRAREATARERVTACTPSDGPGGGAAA
# Chain of UniProt P47898 (whole entry, looked up): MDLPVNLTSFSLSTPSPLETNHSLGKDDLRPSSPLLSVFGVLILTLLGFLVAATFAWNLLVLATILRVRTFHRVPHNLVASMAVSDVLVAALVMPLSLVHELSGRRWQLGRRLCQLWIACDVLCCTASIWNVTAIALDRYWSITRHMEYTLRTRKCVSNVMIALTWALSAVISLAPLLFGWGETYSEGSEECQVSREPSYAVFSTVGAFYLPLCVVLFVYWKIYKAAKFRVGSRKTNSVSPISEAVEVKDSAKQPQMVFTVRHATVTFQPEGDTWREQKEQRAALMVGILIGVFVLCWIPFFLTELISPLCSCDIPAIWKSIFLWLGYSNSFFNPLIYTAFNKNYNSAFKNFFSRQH
# Chain of UniProt P52333 (whole entry, looked up): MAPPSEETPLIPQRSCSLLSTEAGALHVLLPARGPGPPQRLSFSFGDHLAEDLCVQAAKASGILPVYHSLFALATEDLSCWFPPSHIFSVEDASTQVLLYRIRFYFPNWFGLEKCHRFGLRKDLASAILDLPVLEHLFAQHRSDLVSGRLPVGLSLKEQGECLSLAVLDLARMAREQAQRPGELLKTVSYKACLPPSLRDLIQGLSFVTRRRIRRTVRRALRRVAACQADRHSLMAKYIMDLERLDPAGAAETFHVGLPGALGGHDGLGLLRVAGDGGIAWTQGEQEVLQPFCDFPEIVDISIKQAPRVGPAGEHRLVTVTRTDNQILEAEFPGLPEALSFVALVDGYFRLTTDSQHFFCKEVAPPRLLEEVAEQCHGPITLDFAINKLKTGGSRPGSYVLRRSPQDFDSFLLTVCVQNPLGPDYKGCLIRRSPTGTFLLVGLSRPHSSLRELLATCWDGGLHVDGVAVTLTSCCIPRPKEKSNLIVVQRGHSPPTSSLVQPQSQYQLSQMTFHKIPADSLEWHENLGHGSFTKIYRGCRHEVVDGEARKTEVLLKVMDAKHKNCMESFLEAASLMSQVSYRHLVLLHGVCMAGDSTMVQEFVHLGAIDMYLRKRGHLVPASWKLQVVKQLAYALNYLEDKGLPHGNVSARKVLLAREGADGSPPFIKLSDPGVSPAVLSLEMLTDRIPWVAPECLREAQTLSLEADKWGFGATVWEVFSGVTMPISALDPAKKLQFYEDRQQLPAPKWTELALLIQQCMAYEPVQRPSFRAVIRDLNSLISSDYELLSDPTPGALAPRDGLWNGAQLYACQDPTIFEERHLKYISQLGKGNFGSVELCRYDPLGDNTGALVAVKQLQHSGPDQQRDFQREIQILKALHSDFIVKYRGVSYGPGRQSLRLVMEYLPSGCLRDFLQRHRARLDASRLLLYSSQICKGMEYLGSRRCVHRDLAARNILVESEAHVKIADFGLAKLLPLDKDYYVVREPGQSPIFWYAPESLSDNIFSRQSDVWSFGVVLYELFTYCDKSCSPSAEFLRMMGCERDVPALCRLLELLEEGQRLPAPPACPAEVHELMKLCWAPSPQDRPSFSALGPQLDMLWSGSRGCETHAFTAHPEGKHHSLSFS
# Chain of UniProt Q13547 (whole entry, looked up): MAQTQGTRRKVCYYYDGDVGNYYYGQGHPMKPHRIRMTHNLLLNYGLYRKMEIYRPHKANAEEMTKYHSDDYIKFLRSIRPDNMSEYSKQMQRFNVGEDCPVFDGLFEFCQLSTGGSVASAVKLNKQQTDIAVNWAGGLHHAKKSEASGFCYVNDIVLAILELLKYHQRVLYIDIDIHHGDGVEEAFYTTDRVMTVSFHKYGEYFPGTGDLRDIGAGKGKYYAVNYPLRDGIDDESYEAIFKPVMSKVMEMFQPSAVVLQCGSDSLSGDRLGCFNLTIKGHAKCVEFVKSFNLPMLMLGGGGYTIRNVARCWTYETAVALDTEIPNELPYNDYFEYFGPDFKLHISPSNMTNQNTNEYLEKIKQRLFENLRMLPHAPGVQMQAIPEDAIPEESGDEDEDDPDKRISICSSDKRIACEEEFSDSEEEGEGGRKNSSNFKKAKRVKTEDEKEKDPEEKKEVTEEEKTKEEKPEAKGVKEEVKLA
# Chain of UniProt Q07440 (whole entry, unmodified, looked up): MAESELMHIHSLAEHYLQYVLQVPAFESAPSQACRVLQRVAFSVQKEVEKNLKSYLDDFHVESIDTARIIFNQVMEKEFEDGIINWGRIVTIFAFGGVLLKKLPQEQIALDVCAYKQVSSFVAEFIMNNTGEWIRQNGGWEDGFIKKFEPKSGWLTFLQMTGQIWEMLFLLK
Compound,target or system,assay,system,conditions,how to read,endpoint,result
CSCC[C@@H]1NC(=O)[C@H](C)NC(=O)[C@H](CO)NC(=O)[C@H](CCCCN)NC(=O)CNC(=O)[C@H](CC(=O)O)NC(=O)[C@H](CO)NC(=O)CNC(=O)[C@@H]2CSSC[C@H](NC(=O)[C@@H](NC(=O)[C@@H](NC(=O)[C@H](CCC(=O)O)NC(=O)[C@H](CO)NC(=O)CN)C(C)C)[C@@H](C)O)C(=O)N[C@@H](CCC(=O)O)C(=O)N3CCC[C@H]3C(=O)NCC(=O)N[C@@H]([C@@H](C)O)C(=O)N[C@@H]([C@@H](C)O)C(=O)N[C@@H](Cc3ccccc3)C(=O)N[C@@H](CCCCN)C(=O)N[C@@H](CC(=O)O)C(=O)N[C@@H](CCCCN)C(=O)N[C@H]3CSSC[C@@H](C(=O)N[C@@H](Cc4c[nH]c5ccccc45)C(=O)N[C@@H](CCC(N)=O)C(=O)O)NC(=O)[C@H](CC(C)C)NC(=O)[C@H](CCSC)NC(=O)[C@H](CC(C)C)NC(=O)[C@H](CO)NC(=O)[C@H](CSSC[C@H](NC(=O)[C@H]([C@@H](C)O)NC(=O)[C@H](CC(N)=O)NC3=O)C(=O)N[C@@H](CCCNC(=N)N)C(=O)N2)NC1=O,Chymotrypsin-C,"enzyme activity, inhibitor",,,,Ki,0.16 ± 0.02 nM
O=S(=O)(N/N=C/c1ccc(OS(=O)(=O)c2cc(Cl)ccc2Cl)cc1)c1cc(Cl)ccc1Cl,CA2,"enzyme activity, inhibitor, absorbance",,,,Ki,18.5 nM
O=C1c2ccccc2CCCN1CCCCN1CCN(c2cccc(Cl)c2Cl)CC1,"HTR5A (Homo sapiens, UniProt P47898)","ligand displacement, radioligand",,,,Ki,809 nM
NC(=O)CC[C@H](N)C(=O)N[C@@H](CC(N)=O)C(=O)N[C@@H](CC(=O)O)C(=O)N[C@@H](Cc1ccccc1)C(=O)O,ACE,"enzyme activity, inhibitor, absorbance",,,,Ki,469000 nM
O=S(=O)(N/N=C/c1ccc(OS(=O)(=O)c2ccc(Cl)cc2)cc1)c1ccc(Cl)cc1,CA2,"enzyme activity, inhibitor, absorbance",,,,Ki,90.4 nM
O=C1NC(=O)c2c1c1cc(F)c[n+]3c1c1c2c2cc(O)ccc2[n]1[Ru-4]312([N]=C=S)[S+]3CC[S+]1CC[S+]2CC3 (stereo not shown),"PHKG2 (Homo sapiens, UniProt P15735)",enzyme activity,,"100 nM, human enzyme, together with: 10 µM ATP",relative to: untreated,remaining activity,93%
CSCC[C@@H]1NC(=O)[C@H](CC(C)C)NC(=O)[C@H]([C@@H](C)O)NC(=O)[C@@H]2CSSC[C@@H]3NC(=O)[C@H]([C@@H](C)O)NC(=O)[C@H](CC(N)=O)NC(=O)[C@H](CSSC[C@@H](C(=O)N[C@@H](CC(=O)O)C(=O)N[C@@H](CCC(N)=O)C(=O)O)NC(=O)[C@H](CC(C)C)NC1=O)NC(=O)[C@H](CCCCN)NC(=O)[C@H](CC(=O)O)NC(=O)[C@H](CCCCN)NC(=O)[C@H](Cc1ccccc1)NC(=O)[C@H]([C@@H](C)O)NC(=O)[C@H]([C@@H](C)O)NC(=O)CNC(=O)[C@@H]1CCCN1C(=O)[C@H](CCC(=O)O)NC(=O)[C@@H](NC(=O)[C@@H](NC(=O)[C@@H](NC(=O)[C@H](CCC(=O)O)NC(=O)[C@H](CO)NC(=O)CN)C(C)C)[C@@H](C)O)CSSC[C@H](NC(=O)[C@H](CCCNC(=N)N)NC3=O)C(=O)NCC(=O)N[C@@H](CO)C(=O)N[C@@H](CC(=O)O)C(=O)NCC(=O)N[C@@H](CCCCN)C(=O)N[C@@H](CO)C(=O)N[C@@H](C)C(=O)N[C@@H](C)C(=O)N2,Chymotrypsin-C,"enzyme activity, inhibitor",,,,Ki,0.05 ± 0.02 nM
CC(C)[C@@H]1NC(=O)[C@H](Cc2ccccc2)NC(=O)[C@H](Cc2ccc(O)cc2)NC(=O)CCSSC[C@@H](C(=O)N2CCC[C@H]2C(=O)N[C@H](CCCNC(=N)N)C(=O)NCC(N)=O)NC(=O)[C@H](CC(N)=O)NC(=O)[C@H](C(C)C)NC(=O)[C@H](Cc2ccccc2)NC(=O)[C@H](Cc2ccc(O)cc2)NC(=O)CCSSC[C@@H](C(=O)N2CCC[C@H]2C(=O)N[C@H](CCCNC(=N)N)C(=O)NCC(N)=O)NC(=O)[C@H](CC(N)=O)NC1=O,"AVPR1B (Homo sapiens, UniProt P47901)","ligand displacement, radioligand",,,,Ki,4.4 nM
COc1ccccc1-c1n[nH]c2nc(NC3CCN(C(=O)Cc4ccc(F)cc4F)CC3)ncc12,,"bead binding, competition bead pull-down, measured: LINJ.25.2520",Leishmania donovani extract,10 µM,relative to: vehicle,relative abundance,0.99
CSCC[C@@H]1NC(=O)[C@H](CC(C)C)NC(=O)[C@H]([C@@H](C)O)NC(=O)[C@@H]2CSSC[C@@H]3NC(=O)[C@H]([C@@H](C)O)NC(=O)[C@H](CC(N)=O)NC(=O)[C@H](CSSC[C@@H](C(=O)N[C@@H](CC(=O)O)C(=O)N[C@@H](CCC(N)=O)C(=O)O)NC(=O)[C@H](CC(C)C)NC1=O)NC(=O)[C@H](CCCCN)NC(=O)[C@H](CC(=O)O)NC(=O)[C@H](CCCCN)NC(=O)[C@H](Cc1ccccc1)NC(=O)[C@H]([C@@H](C)O)NC(=O)[C@H]([C@@H](C)O)NC(=O)CNC(=O)[C@@H]1CCCN1C(=O)[C@H](CCC(=O)O)NC(=O)[C@@H](NC(=O)[C@@H](NC(=O)[C@@H](NC(=O)[C@H](CCC(=O)O)NC(=O)[C@H](CO)NC(=O)CN)C(C)C)[C@@H](C)O)CSSC[C@H](NC(=O)[C@H](CCCNC(=N)N)NC3=O)C(=O)NCC(=O)N[C@@H](CO)C(=O)N[C@@H](CC(=O)O)C(=O)NCC(=O)N[C@@H](CCCCN)C(=O)N[C@@H](CO)C(=O)N[C@@H](C)C(=O)N[C@@H](Cc1ccc(O)cc1)C(=O)N2,Chymotrypsin-C,"enzyme activity, inhibitor",,,,Ki,0.26 ± 0.03 nM
Cc1cc(O)cc(C)c1C[C@H](N)C(=O)N[C@H](CCCNC(=N)N)C(=O)N[C@@H](Cc1ccccc1)C(=O)N(C)CC(=O)N(C)Cc1cc(C(F)(F)F)cc(C(F)(F)F)c1,"OPRD1 (Homo sapiens, UniProt P41143, D210N)",,,,,Ki,90.8 nM
CS(C)(=O)=Nc1ccc(-c2ccc(-c3nc4cc(O[C@@H]5CO[C@H]6[C@@H]5OC[C@H]6O)[nH]c4cc3F)cc2)cc1,"GSK3A (Homo sapiens, UniProt P49840)","enzyme activity, inhibitor",,10 µM,,inhibition,5%
COc1c(O)cc2c3c1-c1ccccc1CC3N(C)CC2 (stereo not shown),"HTR2C (Homo sapiens, UniProt P28335)","ligand displacement, radioligand",,cell membranes,,Ki,20.9 nM
O=C1NC2(CC2)COc2ncc(F)cc2[C@H]2COCCN2c2ccn3ncc1c3n2,,,"Sprague-Dawley rat, male, blood","oral, 5 mg/kg/day, end of recovery, 4-week repeated-dose toxicity",relative to: red blood cells,reticulocytes,2.57 ± 0.55%
COC1c2cc(C(C)C)c(O)c(O)c2C23CCCC(C)(C)C2C1OC3=O (stereo not shown),CA2,"enzyme activity, inhibitor",,,,Ki,3.3 nM
O=[N+]([O-])c1ccc2c(N=Nc3ccc4ccccc4c3O)c(O)cc(S(=O)(=O)O)c2c1,"Bcl-2-related protein A1 (Mus musculus, UniProt Q07440, C113S/P104K)","ligand displacement, FP",,,,Ki,16200 nM
COc1ccc(S(=O)(=O)Oc2ccc(/C=N/NS(=O)(=O)c3cc(Cl)ccc3Cl)cc2)cc1,CA2,"enzyme activity, inhibitor, absorbance",,,,Ki,17.8 nM
Cc1c(Cl)c(=O)oc2cc(OCCCCCC[Se]C#N)ccc12,CA2,"enzyme activity, inhibitor, stopped-flow",,,,Ki,> 100000 nM
O=S(=O)(N/N=C/c1ccc(OS(=O)(=O)c2cc(Cl)ccc2Cl)cc1)c1ccc(Cl)cc1,CA2,"enzyme activity, inhibitor, absorbance",,,,Ki,89.8 nM
CC(C)(C)C(=O)OCOP(=O)(OCOC(=O)C(C)(C)C)C1CCCN(O)C1=O (stereo not shown),SNB-19,,,,,GI50,551 nM
CCC[C@H](C(=O)c1ccccc1)N1CCCC1,"SLC6A3 (Homo sapiens, UniProt Q01959, V152I)","transporter uptake, inhibitor, radiometric",,,,Ki,295 nM
NC1CCSC1=O (stereo not shown),"CA12 (Homo sapiens, UniProt O43570)","CO2 hydration activity, inhibitor, stopped-flow CO2 hydration",,room temperature preincubation,,Ki,> 100000 nM
COc1ccccc1N1CCN(CCCCN2CCCc3ccccc3C2=O)CC1,DRD4,"ligand displacement, radioligand",,,,Ki,3.1 nM
CCCCCCCCCCCCCCN(O)C(=O)CCCCC[C@@H]1NC(=O)[C@H]2CCCN2C(=O)[C@H](Cc2ccccc2)NC(=O)[C@H](Cc2ccccc2)NC1=O,"HDAC1 (Homo sapiens, UniProt Q13547)","enzyme activity, inhibitor, fluorescence",,,,Ki,18 nM
CC(C)CC(C(=O)N1CC2(CC1C#N)C(=O)Nc1ccccc12)N(C)C(=O)c1cc2c(F)cc(F)c(F)c2[nH]1 (stereo not shown),ACE,"enzyme activity, inhibitor",,,,IC50,> 100 µM
CN(C)[C@H]1C[C@@]23CC[C@@]4(O2)C(=CC[C@]2(C)[C@@H](c5ccc6ccncc6c5)CC[C@H]24)C=C3[C@@H](O)[C@@H]1O,"Tyrosine-protein kinase JAK3, JH2 pseudokinase domain (JAK3, Homo sapiens, UniProt P52333)","ATP probe labelling, inhibitor, KiNativ profiling",,0.1 µM,,inhibition,4.1%
COc1cc2c(cc1O)C(CCc1ccc(Cl)cc1)N(C)CC2 (stereo not shown),DRD4,"cell-free assay, radioligand",,,,Ki,1300 nM
CC[C@H](C)[C@H](NC(=O)[C@H](CO)NC(=O)[C@H](Cc1ccc(O)cc1)NC(=O)[C@H](Cc1ccc(O)cc1)NC(=O)[C@H](CC(N)=O)NC(=O)CNC(=O)[C@H](CO)NC(=O)[C@H](Cc1ccc(O)cc1)NC(=O)[C@H](CO)NC(=O)[C@H](CO)NC(=O)[C@H](CC(N)=O)NC(=O)COCCOCCNC(=O)CN1CCN(CC(=O)O)CCN(CC(=O)O)CCN(CC(=O)O)CC1)C(=O)N[C@@H](CC(C)C)C(N)=O [copper-64 labelled],,dynamic PET,"tamoxifen-induced PDAC mouse model, pancreas","0.4 min, CLDN4-expressing tumours",,maximum pancreas uptake,20 %IA/cc

# A few entries again:
Compound,target or system,assay,system,conditions,how to read,endpoint,result
COc1c(O)cc2c3c1-c1ccccc1CC3N(C)CC2 (stereo not shown),"HTR2C (Homo sapiens, UniProt P28335)","ligand displacement, radioligand",,cell membranes,,Ki,20.9 nM
O=C1NC2(CC2)COc2ncc(F)cc2[C@H]2COCCN2c2ccn3ncc1c3n2,,,"Sprague-Dawley rat, male, blood","oral, 5 mg/kg/day, end of recovery, 4-week repeated-dose toxicity",relative to: red blood cells,reticulocytes,2.57 ± 0.55%
